Results of several laboratories.
Compare with care: the assays were run in different laboratories. “And” joins repeats or separate records; there may be more than shown. Numbers after ± are the reported error.
Cell line: MCF7

COc1ccc(-n2nc(C(C)=O)s/c2=N\N=C(/C)c2ccc(NC(=O)c3ccccc3)cc2)cc1 gave a viability of 2.46% (10 µM).
Under “log2 fold change”, CC/C(=C(\c1ccccc1)c1ccc(OCCN(C)C)cc1)c1ccccc1 is recorded as -1.05 (RNA-seq, item: SSPO mRNA; 1 µM, 24 h, E2-suppressed gene; relative to: DMSO vehicle).
For C=CC(=O)c1cccnc1Nc1cc(C(F)(F)F)ccc1OC, “TEAD reporter activity” read 86.8 ± 7.2% (firefly luciferase reporter; 25 µM, 6 h; relative to: vehicle).
With CCCCN1CCN(c2ccc3nc(-c4ccc5nc(-c6cc(OC)ccc6OC)[nH]c5c4)[nH]c3c2)CC1 the growth percent was 82.4% (SRB; 10 µM, 48 h).
With CCn1c(C)c(N=Nc2ccc(C)cc2)sc1=NN=C(C)c1c(O)c2ccccc2oc1=O the selectivity index was over 5.62 (cell growth, MTT; relative to: IC50 BJ-1 over MCF7).
With CC(=O)Nc1ccc(/C(C)=N/N=c2\sc(C(C)=O)nn2-c2ccc(C)cc2)cc1 the cytotoxicity was 50.5% (MTT; 1.25 µM).
For C=CC(=O)N1CCC(COCC(=O)N2CCN(c3nc(-c4cnc(N)nc4C(F)F)nc(N4CCOC[C@@H]4C)n3)CC2)CC1, the IC50 was 0.0503 µM (western blot, item: phospho-S6 Ser235/Ser236; 2 h).
For COc1ccc(-n2nc(C(C)=O)s/c2=N\N=C(/C)c2ccc(NC(=O)c3ccc(C)cc3)cc2)cc1, the viability was 56.1% (0.156 µM).
C=CC(=O)c1ccccc1Nc1cc(C(F)(F)F)ccc1OC — result for “TEAD reporter activity”: 10.8 ± 2% (firefly luciferase reporter; 100 µM, 6 h; relative to: vehicle).
For C[C@@H]1CC[C@@H]([C@](O)(CNCc2ccccc2)COCc2ccccc2)[C@H](OCc2ccccc2)C1, the IC50 was 1.99 µM (cell growth, inhibitor, MTT; 72 h).
For Cc1cc(=O)[nH]n1-c1nc(-c2ccc(Cl)cc2)c2c(NC(=O)c3ccccc3)nnc-2[nH]1, the cell growth was 88.8% (SRB; 10 µM, NCI60 single-dose screen; relative to: untreated).
The growth percentage of Cc1cc(=O)[nH]c(=O)n1Cc1cn(-c2c3ccccc3nc3ccccc23)nn1 is reported as 2.5% (NCI60 single-dose screen; 10 µM).
For C=CC(=O)c1cccnc1Nc1cc(Cl)ccc1OC, “TEAD reporter activity” read 2.1 ± 0.3% (firefly luciferase reporter; 100 µM, 6 h; relative to: vehicle).
CC(=NN=c1sc(N=Nc2ccccc2)c(C)n1C)c1c(O)c2ccccc2oc1=O gave a selectivity index of over 3.09 (cell growth, MTT; relative to: IC50 BJ-1 over MCF7).
For COc1cnc2cccc(N3CCc4c(cc(Cn5ccnc5C)cc4-c4cn(C)nc4C(F)(F)F)C3=O)c2c1, the EC50 was 10.5 µM (cell growth, inhibitor; 120 h).
With O=[N+]([O-])c1cc(Br)c(O)c(C=NNc2ccccc2)c1 the IL-6 level was 11.9% (ELISA; culture supernatant; IC50, added: LPS; relative to: LPS alone).
The TGI of C#C[C@@]1(O)[C@@H](CO)O[C@@H](n2cc(Br)c3c(N)ncnc32)[C@@H]1O is reported as 1.19 µM and 1.81 µM (SRB; NCI-60 screen).
CC(=O)c1nn(-c2ccccc2Cl)/c(=N/N=C(\C)c2ccc(NC(=O)c3ccccc3)cc2)s1 gave a cytotoxicity of 93.7% (MTT; 1.25 µM).
The cell growth of CSc1nc(-c2ccc(Cl)cc2)c2c(NC(=O)c3ccccc3)nnc-2[nH]1 is reported as 96.2% (SRB; 10 µM, NCI60 single-dose screen; relative to: untreated).
CC(C)(C)OCC(NC(=O)c1cc(Cl)ccc1OCCNC(=O)OC(C)(C)C)C(=O)Nc1ccc([N+](=O)[O-])cc1Cl (stereo in doubt) — result for antiproliferative activity: “inactive” (up to 10 µM, 72 h).
With O=C(Cc1ccccc1)Nc1nnc(CCSCCc2nnc(NC(=O)Cc3ccccc3)s2)s1 the EC50 was about 20 µM (cell proliferation, inhibitor, cell counting; 144 h).
The cytotoxicity of CC(=O)c1nn(-c2ccc(C)cc2)/c(=N/N=C(\C)c2ccc(NC(=O)c3ccccc3)cc2)s1 is reported as 95.2% (MTT; 0.625 µM).
With CC(=O)c1nn(-c2ccc(Cl)cc2)/c(=N/N=C(\C)c2ccc(NC(=O)c3ccccc3)cc2)s1 the toxicity was 95.5% (2.5 µM).
For C=CC(=O)c1cccnc1Nc1cc(C(F)(F)F)ccc1OCc1ccccc1, “TEAD reporter activity” read 66.1 ± 6.4% (firefly luciferase reporter; 25 µM, 6 h; relative to: vehicle).
O=[N+]([O-])c1cc(Br)c(O)c(C=NNc2ccc(C(F)(F)F)cc2)c1: “early apoptotic cells” 61.1% (annexin V; IC50, 24 h).
COc1cccc2c1C(=O)c1c(O)c3c(c(O)c1C2=O)C[C@@](O)(C(=O)CO)C[C@@H]3O[C@H]1C[C@H](N)[C@H](O)[C@H](C)O1: “cells in pre-G1 phase” 28.3% (flow cytometry; 4.29 µM (IC50), 72 h).
C[C@@H]1CC[C@@H]([C@](C)(O)CNCc2cccc(F)c2)[C@H](OCc2ccccc2)C1 has an IC50 of 3.54 µM (cell growth, inhibitor, MTT; 72 h).
CCC(=O)c1cccnc1Nc1cccc(C(F)(F)F)c1: “TEAD reporter activity” 75.4 ± 6.7% (firefly luciferase reporter; 100 µM, 6 h; relative to: vehicle).
With CC(=O)c1nn(-c2ccc(Cl)cc2)/c(=N/N=C(\C)c2ccc(NC(=O)c3ccc(Cl)cc3)cc2)s1 the toxicity was 0.129% (0.312 µM).
For CCOC(=O)c1nn(-c2cccc(Cl)c2)/c(=N/N=C(\C)c2ccc(NC(=O)c3ccc(Cl)cc3)cc2)s1, the cytotoxicity was 89.7% (MTT; 0.312 µM).
C=C1CN(S(=O)(=O)c2ccc(C)cc2)CCCN(CC2CCCCC2)CCCN(S(=O)(=O)c2ccc(OCCO)cc2)C1.Cl — result for mammosphere formation: “decreased” (4 µM, 48 h, added: progranulin 1 µg/mL).
For CC(C)(C)OC(=O)N1CCC(Oc2ccc(Cl)cc2C(=O)N[C@@H](Cc2ccccc2)C(=O)Nc2ccc([N+](=O)[O-])cc2Cl)CC1, antiproliferative activity read “inactive” (up to 10 µM, 72 h).
For C=CC(=O)c1cccnc1Nc1cccc(C(F)(F)F)c1, “TEAD reporter activity” read 5.4 ± 0.6% (firefly luciferase reporter; 100 µM, 6 h; relative to: vehicle).
With O=C1Nc2c(C(F)(F)F)cccc2[C@@]1(c1ccc(O)cc1)N1CC(F)(F)C(F)(F)C1 the selectivity ratio was at least 3500 (cell viability, Alamar blue; 72 h; relative to: IC50 ERα− lines over MCF7).
C[C@]12CC[C@@H]3c4ccc(O)cc4CC[C@H]3[C@@H]1CC[C@@H]2O — result for “H3K4me2 and H3K4me3 levels”: “decreased” (histone methylation, ChIP, item: GREB1 ERE sites; concentration not given, 6 h).
Cc1n[nH]c2nc(-c3ccc(Cl)cc3)c3c(NC(=O)c4ccccc4)nnc-3n12 gave a cell growth of 89% (SRB; 10 µM, NCI60 single-dose screen; relative to: untreated).
OCc1ccc(Nc2ccc3c(Nc4cccc(C(F)(F)F)c4)ncnc3c2)cc1 has a live cells of 62.2% (annexin V-PE/DAPI; concentration not given, 24 h).
For O=C(O)c1ccccc1Nc1cccc(C(F)(F)F)c1, “TEAD reporter activity” read 96.8 ± 2.1% (firefly luciferase reporter; 100 µM, 6 h; relative to: vehicle).
The growth percent of CCCCN1CCN(c2ccc3[nH]c(-c4ccc5[nH]c(-c6cc(OC)c(OC)c(OC)c6)nc5c4)nc3c2)CC1 is reported as 19.9% (SRB; 10 µM, 48 h).
O=[N+]([O-])c1cc(I)c(O)c(C=NNc2ccccc2)c1 has a TNF-α level of 42.3% (ELISA; culture supernatant; IC50, added: LPS).
For CC(=NN=c1scc(C)n1C)c1c(O)c2ccccc2oc1=O, the selectivity index was over 2.87 (cell growth, MTT; relative to: IC50 BJ-1 over MCF7).
The IC50 of Cc1nc(NC(=O)N2CCC[C@H]2C(N)=O)sc1-c1ccnc(C(C)(C)C(F)(F)F)c1 is reported as 0.267 µM (western blot, item: phospho-S6 Ser235/Ser236; 2 h).
The selectivity index of CC(=O)c1sc(=NN=C(C)c2c(O)c3ccccc3oc2=O)n(C)c1C is reported as over 3.06 (cell growth, MTT; relative to: IC50 BJ-1 over MCF7).
Under “TEAD reporter activity”, C=CC(=O)c1cccnc1Nc1cc(NC(=O)CCCCCC)ccc1OC is recorded as 51.1 ± 1.7% (firefly luciferase reporter; 25 µM, 6 h; relative to: vehicle).
The cytotoxicity of CCOC(=O)c1nn(-c2cccc(Cl)c2)/c(=N/N=C(\C)c2ccc(NC(=O)c3ccccc3)cc2)s1 is reported as 97.5% (MTT; 5 µM).

Some of these lines once more:
Under “log2 fold change”, CC/C(=C(\c1ccccc1)c1ccc(OCCN(C)C)cc1)c1ccccc1 is recorded as -1.05 (RNA-seq, item: SSPO mRNA; 1 µM, 24 h, E2-suppressed gene; relative to: DMSO vehicle).
For C=CC(=O)c1cccnc1Nc1cc(C(F)(F)F)ccc1OC, “TEAD reporter activity” read 86.8 ± 7.2% (firefly luciferase reporter; 25 µM, 6 h; relative to: vehicle).
With CCCCN1CCN(c2ccc3nc(-c4ccc5nc(-c6cc(OC)ccc6OC)[nH]c5c4)[nH]c3c2)CC1 the growth percent was 82.4% (SRB; 10 µM, 48 h).
With CCn1c(C)c(N=Nc2ccc(C)cc2)sc1=NN=C(C)c1c(O)c2ccccc2oc1=O the selectivity index was over 5.62 (cell growth, MTT; relative to: IC50 BJ-1 over MCF7).
With CC(=O)Nc1ccc(/C(C)=N/N=c2\sc(C(C)=O)nn2-c2ccc(C)cc2)cc1 the cytotoxicity was 50.5% (MTT; 1.25 µM).
